Experimental data from different studies.
Compare with care: the assays were run in different laboratories.
Cell line: PC-3

C[C@]1([N+](=O)[O-])C(=O)c2cc(F)ccc2O[C@@H]1CC(=O)NC12CC3CC(CC(C3)C1)C2 — IC50 (cell growth or viability, SRB; 96 h): 0.94 µM
N#CC(C(=O)Nc1nnc(NC(=O)c2ccccc2)s1)=C1Oc2cccnc2O1 — IC50 (cell growth or viability, MTT; 48 h): 31.4 µM
COc1cccc2c1C(=O)c1c(O)c3c(c(O)c1C2=O)C[C@@](O)(C(=O)CO)C[C@@H]3O[C@H]1C[C@H](N)[C@H](O)[C@H](C)O1 — IC50 (cell growth or viability, MTT; 72 h): 2.61 µM
CN1CCC2(CC1)C/C(=N\N=C\c1ccc(Cl)cc1)c1ccccc1O2 — IC50 (cell growth or viability, MTT; 48 h): 12.7 µM
O=C1Nc2ccccc2C1=Cc1cc2ccc3ccccc3c2nc1Cl — IC50 (cell growth or viability, MTT; 72 h): > 100 µM
C[C@]1([N+](=O)[O-])C(=O)c2ccccc2O[C@@H]1CC(=O)Nc1ccc2[nH]ccc2c1 — IC50 (cell growth or viability, SRB; 96 h): 15.8 µM
Cc1c(Cc2ccccc2)c(=O)oc2c(C)c(OCC(=O)NN=Cc3ccccc3)ccc12 — IC50 (cell growth or viability, MTT): 37.6 µM
C[C@]1([N+](=O)[O-])C(=O)c2ccccc2O[C@@H]1CC(=O)Nc1ccccc1 — IC50 (cell growth or viability, SRB; 96 h): 6.44 µM
C=CCOc1ccc2c(C)c(CC)c(=O)oc2c1C — IC50 (cell growth or viability, MTT): > 50 µM
CCCCNC(=O)C[C@H]1Oc2ccccc2C(=O)[C@]1(C)[N+](=O)[O-] — IC50 (cell growth or viability, SRB; 96 h): 9.97 µM
CCOc1ccc2c(C)c(CC)c(=O)oc2c1C — IC50 (cell growth or viability, MTT): > 50 µM
N#CCC(=O)Nc1nnc(NC(=O)c2ccccc2)s1 — IC50 (cell growth or viability, MTT; 48 h): 39.2 µM
CCC(=O)O[C@H]1[C@H](C)O[C@@H](O[C@H]2[C@H](N(C)C)[C@@H](O)[C@H](O[C@H]3[C@@H](CC=O)C[C@@H](C)[C@@H](O)/C=C/C=C/C[C@@H](C)OC(=O)C[C@@H](O)[C@@H]3OC)O[C@@H]2C)C[C@@]1(C)O — IC50 (cell growth or viability, crystal violet; 72 h): > 50 µM
C=CCNC(=S)NNC(=O)COc1ccc2c(C)c(CC)c(=O)oc2c1C — IC50 (cell growth or viability, MTT): > 50 µM
Cc1cc(C)n(-c2nnc(NC(=O)c3ccccc3)s2)c(=O)c1C#N — IC50 (cell growth or viability, MTT; 48 h): 15.4 µM
CN(C)C(=O)C[C@H]1Oc2ccccc2C(=O)[C@]1(C)[N+](=O)[O-] — IC50 (cell growth or viability, SRB; 96 h): > 50 µM
N#Cc1c(Nc2ccccc2)n2nc(NC(=O)c3ccccc3)sc2nc1=O — IC50 (cell growth or viability, MTT; 48 h): 10.5 µM
C=CCc1ccc(OCc2nnc(SCC(=O)N3CCCCC3)o2)c(OC)c1 — IC50 (cell growth or viability, MTT; 72 h): 125 µM
Cc1ccc2nc(Cl)c(C=C3C(=O)Nc4ccccc43)cc2c1 — IC50 (cell growth or viability, MTT; 72 h): > 100 µM
CCc1c(C)c2ccc(OCC(=O)NNC(=S)Nc3ccccc3)c(C)c2oc1=O — IC50 (cell growth or viability, MTT): > 50 µM
COC(=O)c1c(-c2ccc(Cl)cc2)c2n(c1C(=O)OC)CCn1cccc1-2 — IC50 (cell growth or viability, MTT; 48 h): 83.3 µM
N#CC(=Cc1cccs1)C(=O)Nc1nnc(NC(=O)c2ccccc2)s1 — IC50 (cell growth or viability, MTT; 48 h): 11.1 µM
C=CCc1ccc(OCc2nn(CN3CCCCC3)c(=S)o2)c(OC)c1 — IC50 (cell growth or viability, MTT; 72 h): 26.7 µM
N#CC(C(=O)Nc1nnc(NC(=O)c2ccccc2)s1)=C1Nc2ccccc2N1 — IC50 (cell growth or viability, MTT; 48 h): 81.8 µM
C#Cc1cccc(Nc2ncnc3cc(OCCOC)c(OCCOC)cc23)c1 — IC50 (cell growth or viability, MTT): 12.3 µM
N=c1oc2ccccc2cc1C(=O)Nc1nnc(NC(=O)c2ccccc2)s1 — IC50 (cell growth or viability, MTT; 48 h): 21 µM
CN1CCC2(CC1)C/C(=N\N=C\c1ccc(N(C)C)cc1)c1ccccc1O2 — IC50 (cell growth or viability, MTT; 48 h): 59.2 µM
Cc1ccccc1-c1c2n(c3c(=O)[nH]nc(O)c13)CCn1cccc1-2 — IC50 (cell growth or viability, MTT; 48 h): 65.3 µM
COc1ccc2nc(Cl)c(C=C3C(=O)Nc4ccccc43)cc2c1 — IC50 (cell growth or viability, MTT; 72 h): > 100 µM
COC(=O)c1c(-c2ccccc2)c2n(c1C(=O)OC)CCn1cccc1-2 — IC50 (cell growth or viability, MTT; 48 h): 78.9 µM
CCCCCCCCNC(=O)C[C@H]1Oc2ccccc2C(=O)[C@]1(C)[N+](=O)[O-] — IC50 (cell growth or viability, SRB; 96 h): 4.83 µM
Cc1c(Cc2ccccc2)c(=O)oc2c(C)c(OCC(=O)NN=Cc3ccc([N+](=O)[O-])cc3)ccc12 — IC50: 12.1 µM
COC(=O)c1c(-c2cccc([N+](=O)[O-])c2)c2n(c1C(=O)OC)CCn1cccc1-2 — IC50 (cell growth or viability, MTT; 48 h): 40.6 µM
C[C@]1([N+](=O)[O-])C(=O)c2ccccc2O[C@@H]1CC(N)=O — IC50 (cell growth or viability, SRB; 96 h): 23.2 µM
COC(=O)c1c(-c2ccccc2C)c2n(c1C(=O)OC)CCn1cccc1-2 — IC50 (cell growth or viability, MTT; 48 h): 64.8 µM
Cc1ccc(-c2cc(-c3ccc(Cl)cc3)c3c(=O)[nH]c(=O)[nH]c3n2)cc1 — IC50 (cell growth or viability, MTT; 48 h): > 10 µM
COc1cc2cc(C=C3C(=O)Nc4ccccc43)c(Cl)nc2cc1OC — IC50 (cell growth or viability, MTT; 72 h): > 100 µM
N#CC(=Cc1ccco1)C(=O)Nc1nnc(NC(=O)c2ccccc2)s1 — IC50 (cell growth or viability, MTT; 48 h): 13.3 µM
COc1cc([C@@H]2c3cc4c(cc3[C@@H](O[C@@H]3O[C@@H]5CO[C@@H](C)O[C@H]5[C@H](O)[C@H]3O)[C@H]3COC(=O)[C@H]23)OCO4)cc(OC)c1O — IC50 (cell growth or viability, MTT; 48 h): 32.1 µM
CCc1c(C)c2ccc(OCC(=O)NN=Cc3ccc([N+](=O)[O-])cc3)cc2oc1=O — IC50 (cell growth or viability, MTT): 10.2 µM
COc1cccc(-c2c3n(c4c(=O)[nH]nc(O)c24)CCn2cccc2-3)c1 — IC50 (cell growth or viability, MTT; 48 h): 79 µM
COc1ccc2c(c1)C(=O)[C@](C)([N+](=O)[O-])[C@@H](CC(=O)NC13CC4CC(CC(C4)C1)C3)O2 — IC50 (cell growth or viability, SRB; 96 h): 6.77 µM
C=CCc1ccc(OCc2nn(CN3CCCC3)c(=S)o2)c(OC)c1 — IC50 (cell growth or viability, MTT; 72 h): 10 µM
COC(=O)c1c(-c2ccc(F)cc2)c2n(c1C(=O)OC)CCn1cccc1-2 — IC50 (cell growth or viability, MTT; 48 h): 89.7 µM

Excerpt of the above:
Cc1ccccc1-c1c2n(c3c(=O)[nH]nc(O)c13)CCn1cccc1-2 — IC50 (cell growth or viability, MTT; 48 h): 65.3 µM
N#CC(C(=O)Nc1nnc(NC(=O)c2ccccc2)s1)=C1Oc2cccnc2O1 — IC50 (cell growth or viability, MTT; 48 h): 31.4 µM
COc1ccc2nc(Cl)c(C=C3C(=O)Nc4ccccc43)cc2c1 — IC50 (cell growth or viability, MTT; 72 h): > 100 µM
